# Assay results from different studies.
# Lines come from different studies, so protocols differ.
# Chain of UniProt P00942 (whole entry, unmodified, looked up): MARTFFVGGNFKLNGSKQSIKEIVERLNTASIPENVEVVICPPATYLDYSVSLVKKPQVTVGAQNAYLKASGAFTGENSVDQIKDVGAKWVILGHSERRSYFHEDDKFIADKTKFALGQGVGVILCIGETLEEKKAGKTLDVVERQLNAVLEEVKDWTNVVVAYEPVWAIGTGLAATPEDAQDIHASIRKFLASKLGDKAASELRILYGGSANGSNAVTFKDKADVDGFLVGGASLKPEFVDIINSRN
# Chain of UniProt Q9UHI6 (whole entry, looked up): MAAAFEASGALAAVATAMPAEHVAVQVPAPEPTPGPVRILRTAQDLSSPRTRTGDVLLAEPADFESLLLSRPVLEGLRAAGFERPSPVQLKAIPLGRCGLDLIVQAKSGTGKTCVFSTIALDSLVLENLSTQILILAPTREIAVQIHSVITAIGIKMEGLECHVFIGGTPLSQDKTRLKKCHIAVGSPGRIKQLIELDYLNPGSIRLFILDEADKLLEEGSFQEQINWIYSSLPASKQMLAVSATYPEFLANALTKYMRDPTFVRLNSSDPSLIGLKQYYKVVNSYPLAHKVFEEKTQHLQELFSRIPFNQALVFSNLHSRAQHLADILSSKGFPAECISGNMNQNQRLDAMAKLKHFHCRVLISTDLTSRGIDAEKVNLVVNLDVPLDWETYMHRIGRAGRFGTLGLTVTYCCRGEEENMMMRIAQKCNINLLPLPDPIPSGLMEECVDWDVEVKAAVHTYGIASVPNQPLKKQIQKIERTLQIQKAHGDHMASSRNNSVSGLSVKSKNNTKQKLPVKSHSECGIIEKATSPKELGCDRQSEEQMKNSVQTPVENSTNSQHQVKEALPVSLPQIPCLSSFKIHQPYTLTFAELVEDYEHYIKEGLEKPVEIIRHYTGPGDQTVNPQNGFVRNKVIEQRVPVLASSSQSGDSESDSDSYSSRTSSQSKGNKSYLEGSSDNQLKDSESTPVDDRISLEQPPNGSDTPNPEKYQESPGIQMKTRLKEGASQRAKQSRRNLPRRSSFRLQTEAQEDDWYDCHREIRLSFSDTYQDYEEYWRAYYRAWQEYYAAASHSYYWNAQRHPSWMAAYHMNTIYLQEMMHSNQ
# Chain of UniProt Q8WTQ7 (whole entry, looked up): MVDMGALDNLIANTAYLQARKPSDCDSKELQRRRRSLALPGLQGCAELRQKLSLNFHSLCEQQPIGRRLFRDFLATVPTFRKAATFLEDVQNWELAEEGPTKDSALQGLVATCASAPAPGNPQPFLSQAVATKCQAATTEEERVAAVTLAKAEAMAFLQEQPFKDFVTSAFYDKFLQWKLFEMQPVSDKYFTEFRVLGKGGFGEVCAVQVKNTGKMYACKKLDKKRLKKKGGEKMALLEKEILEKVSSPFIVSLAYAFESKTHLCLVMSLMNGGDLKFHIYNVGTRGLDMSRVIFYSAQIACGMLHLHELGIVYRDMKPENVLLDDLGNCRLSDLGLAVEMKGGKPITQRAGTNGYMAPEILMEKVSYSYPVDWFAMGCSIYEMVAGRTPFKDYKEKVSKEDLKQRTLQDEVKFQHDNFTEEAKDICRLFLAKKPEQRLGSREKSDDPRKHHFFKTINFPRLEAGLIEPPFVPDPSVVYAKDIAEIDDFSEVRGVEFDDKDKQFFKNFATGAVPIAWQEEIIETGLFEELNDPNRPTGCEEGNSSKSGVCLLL
# Chain of UniProt Q5VWZ2 (whole entry, looked up): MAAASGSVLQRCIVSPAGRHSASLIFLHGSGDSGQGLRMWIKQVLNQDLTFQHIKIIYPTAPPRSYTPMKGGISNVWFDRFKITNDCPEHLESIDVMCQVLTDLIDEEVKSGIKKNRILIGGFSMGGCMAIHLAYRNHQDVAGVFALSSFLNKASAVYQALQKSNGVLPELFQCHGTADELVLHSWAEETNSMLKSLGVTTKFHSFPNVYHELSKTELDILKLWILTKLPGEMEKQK
# Chain of UniProt Q96RJ0 (whole entry, looked up): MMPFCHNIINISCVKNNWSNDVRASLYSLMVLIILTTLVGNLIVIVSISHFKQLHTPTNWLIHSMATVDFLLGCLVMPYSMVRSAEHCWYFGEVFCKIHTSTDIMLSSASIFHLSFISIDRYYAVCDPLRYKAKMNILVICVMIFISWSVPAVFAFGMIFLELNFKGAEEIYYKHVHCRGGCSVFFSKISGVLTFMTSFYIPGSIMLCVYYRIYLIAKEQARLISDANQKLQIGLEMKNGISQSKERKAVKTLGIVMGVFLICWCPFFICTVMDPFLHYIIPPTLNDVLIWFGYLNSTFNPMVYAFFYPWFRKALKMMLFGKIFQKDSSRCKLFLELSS
# Chain of UniProt Q9Y3S1 (whole entry, looked up): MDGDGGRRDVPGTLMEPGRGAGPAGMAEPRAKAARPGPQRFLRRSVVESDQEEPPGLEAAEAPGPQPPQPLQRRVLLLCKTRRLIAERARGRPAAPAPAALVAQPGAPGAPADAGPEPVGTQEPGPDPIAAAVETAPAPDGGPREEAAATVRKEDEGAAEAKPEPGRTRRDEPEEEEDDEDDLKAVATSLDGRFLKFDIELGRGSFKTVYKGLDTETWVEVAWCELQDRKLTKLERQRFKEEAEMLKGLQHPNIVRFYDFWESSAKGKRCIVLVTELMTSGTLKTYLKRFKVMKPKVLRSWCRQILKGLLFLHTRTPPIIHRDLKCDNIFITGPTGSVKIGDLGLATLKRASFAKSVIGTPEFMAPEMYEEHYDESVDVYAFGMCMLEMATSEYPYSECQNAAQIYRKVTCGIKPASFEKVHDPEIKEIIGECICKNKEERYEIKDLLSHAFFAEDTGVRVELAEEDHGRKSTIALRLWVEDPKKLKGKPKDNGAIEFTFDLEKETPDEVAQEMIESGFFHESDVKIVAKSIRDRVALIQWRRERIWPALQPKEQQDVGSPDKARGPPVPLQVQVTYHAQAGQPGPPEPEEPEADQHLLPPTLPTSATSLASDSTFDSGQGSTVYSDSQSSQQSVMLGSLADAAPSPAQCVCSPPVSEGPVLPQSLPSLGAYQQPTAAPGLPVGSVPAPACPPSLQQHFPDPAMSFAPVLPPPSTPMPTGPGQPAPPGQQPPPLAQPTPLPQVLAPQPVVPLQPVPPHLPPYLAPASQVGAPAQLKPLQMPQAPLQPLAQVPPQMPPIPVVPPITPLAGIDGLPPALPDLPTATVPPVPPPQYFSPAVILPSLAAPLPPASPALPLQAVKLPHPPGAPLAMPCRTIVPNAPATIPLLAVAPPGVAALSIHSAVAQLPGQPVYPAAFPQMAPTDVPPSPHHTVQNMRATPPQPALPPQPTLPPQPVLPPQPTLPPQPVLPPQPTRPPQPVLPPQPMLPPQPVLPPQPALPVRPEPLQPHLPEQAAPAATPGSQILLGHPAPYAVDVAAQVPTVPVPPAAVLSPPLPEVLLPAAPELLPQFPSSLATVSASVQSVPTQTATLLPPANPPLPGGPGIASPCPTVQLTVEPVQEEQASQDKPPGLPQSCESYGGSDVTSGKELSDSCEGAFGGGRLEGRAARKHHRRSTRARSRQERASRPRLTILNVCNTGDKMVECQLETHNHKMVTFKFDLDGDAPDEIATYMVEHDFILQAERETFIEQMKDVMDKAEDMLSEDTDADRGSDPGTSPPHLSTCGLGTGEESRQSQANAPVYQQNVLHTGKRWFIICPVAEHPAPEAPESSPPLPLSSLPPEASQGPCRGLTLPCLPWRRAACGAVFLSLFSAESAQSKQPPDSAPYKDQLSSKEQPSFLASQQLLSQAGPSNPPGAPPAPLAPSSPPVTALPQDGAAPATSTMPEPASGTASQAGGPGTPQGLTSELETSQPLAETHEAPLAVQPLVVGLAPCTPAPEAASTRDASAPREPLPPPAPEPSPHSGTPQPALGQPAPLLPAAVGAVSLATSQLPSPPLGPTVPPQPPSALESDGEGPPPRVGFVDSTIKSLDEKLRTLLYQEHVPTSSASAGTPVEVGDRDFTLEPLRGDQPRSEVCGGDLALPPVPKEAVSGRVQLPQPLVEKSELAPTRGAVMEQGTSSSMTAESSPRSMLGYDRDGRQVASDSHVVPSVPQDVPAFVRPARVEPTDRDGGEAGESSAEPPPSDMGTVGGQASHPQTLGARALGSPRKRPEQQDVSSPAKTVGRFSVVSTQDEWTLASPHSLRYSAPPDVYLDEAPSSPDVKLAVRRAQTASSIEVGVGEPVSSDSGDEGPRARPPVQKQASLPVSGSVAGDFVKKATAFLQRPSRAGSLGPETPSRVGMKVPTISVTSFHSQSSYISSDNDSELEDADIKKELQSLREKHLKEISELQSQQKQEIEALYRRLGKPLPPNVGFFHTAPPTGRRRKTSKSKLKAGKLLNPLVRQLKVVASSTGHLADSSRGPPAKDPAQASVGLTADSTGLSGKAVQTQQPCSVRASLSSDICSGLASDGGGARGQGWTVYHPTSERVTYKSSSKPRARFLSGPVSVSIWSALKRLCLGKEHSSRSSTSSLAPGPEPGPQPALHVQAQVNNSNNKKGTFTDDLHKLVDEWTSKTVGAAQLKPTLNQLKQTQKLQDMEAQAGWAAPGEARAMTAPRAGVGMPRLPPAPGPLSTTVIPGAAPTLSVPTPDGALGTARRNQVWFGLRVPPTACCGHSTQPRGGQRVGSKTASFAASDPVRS
# Chain of UniProt P35372 (whole entry, looked up): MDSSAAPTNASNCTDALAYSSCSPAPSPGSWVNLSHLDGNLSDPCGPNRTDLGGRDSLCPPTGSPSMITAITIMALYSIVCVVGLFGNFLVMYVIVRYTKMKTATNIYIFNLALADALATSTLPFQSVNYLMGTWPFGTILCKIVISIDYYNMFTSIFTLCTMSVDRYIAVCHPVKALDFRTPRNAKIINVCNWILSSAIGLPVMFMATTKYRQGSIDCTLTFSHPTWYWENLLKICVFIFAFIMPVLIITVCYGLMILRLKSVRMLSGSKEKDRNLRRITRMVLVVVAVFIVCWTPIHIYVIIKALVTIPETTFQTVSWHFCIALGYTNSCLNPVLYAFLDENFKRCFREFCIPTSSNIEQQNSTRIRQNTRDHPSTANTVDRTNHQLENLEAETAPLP
Structure (SMILES),tested on,test,test system,setting,how to read,endpoint,value
CN1CC[C@]2(C)c3cc(OC(=O)Nc4ccccc4)ccc3N(C)[C@H]12,human nicotinic α2β4 receptor,radioligand binding,,"10 µM, with: [3H]epibatidine",,inhibition,0%
Nc1nc2c(c(=O)[nH]1)C[C@@H](CCc1ccc(C(=O)N[C@@H](CCC(=O)O)C(=O)O)cc1)CN2,human coronavirus OC43,virus-induced cell killing,MRC-5,screen,,maximum inhibition,12.6%
OC[C@H]1O[C@@H](n2ccc3c(SCc4ccc(Cl)c(Cl)c4)ncnc32)[C@H](O)[C@@H]1O,Toxoplasma gondii,[3H]uracil incorporation,"human fibroblasts, adenosine kinase deficient",50 µM,,survival,100%
[2H]c1c([2H])c([C@]2([2H])CCCN2C(=O)C(C)(C)Oc2ccc3cn[nH]c3c2)c([2H])c([2H])c1C([2H])([2H])[2H],"WNK2 (Homo sapiens, UniProt Q9Y3S1)",KINOMEscan,,1 µM,relative to: DMSO control,remaining binding,100%
CC(C)[C@@H]1NC(=O)[C@H](Cc2ccccc2)NC(=O)[C@@H]2NC(=O)[C@H](Cc3ccccc3)NC(=O)[C@@H]3CCCN3C(=O)CNC(=O)[C@H](Cc3ccccc3)NC(=O)[C@@H]3CNCCCC[C@@H](C(=O)O)NC(=O)[C@@H]4NC(=O)[C@H](CC(N)=O)NC(=O)CNC(=O)[C@H]([C@@H](O)C(=O)O)NC(=O)[C@H](CSC[C@@H](NC(=O)[C@H](CCC(N)=O)NC(=O)[C@H](CCCCNC(=O)c5ccc(NN)nc5)NC(=O)[C@@H](N)CS[C@H]4C)C(=O)N[C@@H](CS[C@H]2C)C(=O)N3)NC1=O [technetium-99m labelled],,,"rat 45 min ischemia, 2 h reperfusion, blood",,,half-life,11.3 min
O=C(c1ccc(Cl)cc1)N1CCN2C(=O)N(OC(=O)N3CCOc4ccccc43)C(=O)C2C1 (stereo not shown),"LYPLAL1 (Homo sapiens, UniProt Q5VWZ2)",MS-based ABPP,SW-620 conditioned medium,"10 µM, 1 h, 37 °C","relative to: compound over DMSO, lower = more inhibition",median protein ratio,1.04
O=C(O)COP(=O)(O)O,"TPI1 (Saccharomyces cerevisiae, UniProt P00942, S211A)","enzyme activity, competitive inhibitor, GPDH/NADH-coupled",,"pH 8.9, 25 °C, ionic strength 0.1 NaCl, with: glyceraldehyde 3-phosphate substrate",relative to: mutant over wild type,Ki ratio,21
Cc1ccc(CSc2ncnc3c2ccn3[C@@H]2O[C@H](CO)[C@@H](O)[C@H]2O)cc1,Toxoplasma gondii,[3H]uracil incorporation,"human fibroblasts, adenosine kinase deficient",25 µM,,survival,100%
Oc1ccc2c3c1O[C@H]1[C@@H](O)CC[C@@]4(O)[C@@H](C2)N(CC2CCC2)CC[C@]314,"TAAR1 (Homo sapiens, UniProt Q96RJ0)","β-arrestin recruitment, TANGO luminescence, refers to: TA1",,concentration not given,relative to: basal luminescence,log2 fold change,0.139
CC[C@H](C)[C@H](NC(=O)CNC(=O)[C@@H](N)CCCCN)C(=O)N[C@@H](CC(C)C)C(=O)N[C@@H](CCCCN)C(=O)N[C@@H](CCCNC(=N)N)C(=O)N[C@@H](CCC(=O)O)C(=O)N[C@@H](CCCCN)C(=O)N[C@@H](CCCNC(=N)N)C(=O)N[C@@H](CC(C)C)C(=O)N[C@@H](CCCNC(=N)N)C(=O)N[C@@H](CCCNC(=N)N)C(=O)N[C@@H](CCCCN)C(=O)N[C@@H](CC(N)=O)C(=O)N[C@H](C(=O)N[C@@H](Cc1c[nH]cn1)C(=O)N[C@@H](Cc1c[nH]c2ccccc12)C(=O)N1CCC[C@H]1C(=O)N[C@@H](CCC(=O)O)C(=O)N[C@@H](CCC(=O)O)C(=O)NCC(=O)N[C@@H](CCCCN)C(=O)N[C@@H](CC(C)C)C(=O)N[C@@H](CCCNC(=N)N)C(=O)N[C@@H](CCC(=O)O)C(=O)N[C@@H](Cc1ccccc1)C(=O)N[C@@H](Cc1ccccc1)C(=O)N[C@@H](Cc1ccccc1)C(=O)N[C@@H](Cc1ccccc1)C(=O)N[C@@H](CCC(=O)O)C(=O)N[C@@H](CC(C)C)C(=O)N[C@@H](CC(=O)O)C(=O)N[C@@H](CCC(=O)O)C(=O)N[C@@H](C)C(=O)N[C@@H](CCC(=O)O)C(=O)N[C@@H](CCCNC(=N)N)C(=O)N[C@H](C(=O)N[C@@H](CC(N)=O)C(=O)N[C@H](C(=O)O)C(C)C)C(C)C)C(C)C,HeLa and HEK-293T cells,"phosphatase bead binding, competitive inhibitor, PIB pulldown iBAQ LC-MS/MS, refers to: SLMAP",,concentration not given,relative to: untreated control,log2 fold change,-0.17
Cc1oncc1C(=O)Nc1ccc(C(F)(F)F)cc1,human coronavirus OC43,virus-induced cell killing,MRC-5,screen,,maximum inhibition,8.12%
OC[C@H]1O[C@@H](n2ccc3c(SCc4ccc(F)cc4F)ncnc32)[C@H](O)[C@@H]1O,Toxoplasma gondii,[3H]uracil incorporation,"human fibroblasts, adenosine kinase deficient",10 µM,,survival,100%
CN1CCN(c2cc(-c3ccncc3)c(-c3ccc4ccccc4c3)nn2)CC1,"CCR7 (Homo sapiens, UniProt P32248)","agonist, FLIPR calcium",,12.5 µM,,activation,0.5%
CC[C@H](C)[C@H](NC(=O)CNC(=O)[C@@H](N)CCCCN)C(=O)N[C@@H](CC(C)C)C(=O)N[C@@H](CCCCN)C(=O)N[C@@H](CCCNC(=N)N)C(=O)N[C@@H](CCC(=O)O)C(=O)N[C@@H](CCCCN)C(=O)N[C@@H](CCCNC(=N)N)C(=O)N[C@@H](CC(C)C)C(=O)N[C@@H](CCCNC(=N)N)C(=O)N[C@@H](CCCNC(=N)N)C(=O)N[C@@H](CCCCN)C(=O)N[C@@H](CC(N)=O)C(=O)N[C@H](C(=O)N[C@@H](Cc1c[nH]cn1)C(=O)N[C@@H](Cc1c[nH]c2ccccc12)C(=O)N1CCC[C@H]1C(=O)N[C@@H](CCC(=O)O)C(=O)N[C@@H](CCC(=O)O)C(=O)NCC(=O)N[C@@H](CCCCN)C(=O)N[C@@H](CC(C)C)C(=O)N[C@@H](CCCNC(=N)N)C(=O)N[C@@H](CCC(=O)O)C(=O)N[C@@H](Cc1ccc(O)cc1)C(=O)N[C@@H](Cc1ccccc1)C(=O)N[C@@H](Cc1ccc(O)cc1)C(=O)N[C@@H](Cc1ccccc1)C(=O)N[C@@H](CCC(=O)O)C(=O)N[C@@H](CC(C)C)C(=O)N[C@@H](CC(=O)O)C(=O)N[C@@H](CCC(=O)O)C(=O)N[C@@H](C)C(=O)N[C@@H](CCC(=O)O)C(=O)N[C@@H](CCCNC(=N)N)C(=O)N[C@H](C(=O)N[C@@H](CC(N)=O)C(=O)N[C@H](C(=O)O)C(C)C)C(C)C)C(C)C,HeLa and HEK-293T cells,"phosphatase bead binding, competitive inhibitor, PIB pulldown iBAQ LC-MS/MS, refers to: PPP4R2",,concentration not given,relative to: untreated control,log2 fold change,0.14
CNC1(c2ccccc2Cl)CCCCC1=O (racemic),"OPRM1 (Homo sapiens, UniProt P35372)","radioligand binding, agonist, radioligand displacement",,30 µM,,inhibition,69%
COc1ccc(N2C(=O)N(c3c(C)cccc3Cl)Cc3cnc(Nc4ccc(C5CCN(C)CC5)cc4OC)nc32)nc1,"GRK7 (Homo sapiens, UniProt Q8WTQ7)",kinase activity,,0.5 µM,,inhibition,5%
OC[C@H]1O[C@@H](n2ccc3c(SCc4ccc(Cl)cc4Cl)ncnc32)[C@H](O)[C@@H]1O,Toxoplasma gondii,[3H]uracil incorporation,"human fibroblasts, adenosine kinase deficient",25 µM,,survival,100%
COc1ccc(Nc2cc(C(=O)NCCCN3CCN(c4ccccc4F)CC3)c3ccccc3n2)c(OC)c1,Vero-E6,CellTiter-Glo ATP,,"concentration not given, 72 h, second round 5-point","relative to: DMSO 0%, hyamine -100%, more negative, more toxic",cytotoxicity efficacy,-31.5%
C[C@H]1CN(c2n[nH]c3nc(N[C@H]4CC[C@H](NS(=O)(=O)CCC(F)(F)F)CC4)ncc23)CCO1,"DDX20 (Homo sapiens, UniProt Q9UHI6)","inhibitor, Kinobeads competition profiling",,0.8 µM,relative to: vehicle,relative abundance,1.14
